Assay results gathered from unrelated publications.
A part holds a random share of what one study measured.
UniProt P54762, sequence (whole entry, looked up): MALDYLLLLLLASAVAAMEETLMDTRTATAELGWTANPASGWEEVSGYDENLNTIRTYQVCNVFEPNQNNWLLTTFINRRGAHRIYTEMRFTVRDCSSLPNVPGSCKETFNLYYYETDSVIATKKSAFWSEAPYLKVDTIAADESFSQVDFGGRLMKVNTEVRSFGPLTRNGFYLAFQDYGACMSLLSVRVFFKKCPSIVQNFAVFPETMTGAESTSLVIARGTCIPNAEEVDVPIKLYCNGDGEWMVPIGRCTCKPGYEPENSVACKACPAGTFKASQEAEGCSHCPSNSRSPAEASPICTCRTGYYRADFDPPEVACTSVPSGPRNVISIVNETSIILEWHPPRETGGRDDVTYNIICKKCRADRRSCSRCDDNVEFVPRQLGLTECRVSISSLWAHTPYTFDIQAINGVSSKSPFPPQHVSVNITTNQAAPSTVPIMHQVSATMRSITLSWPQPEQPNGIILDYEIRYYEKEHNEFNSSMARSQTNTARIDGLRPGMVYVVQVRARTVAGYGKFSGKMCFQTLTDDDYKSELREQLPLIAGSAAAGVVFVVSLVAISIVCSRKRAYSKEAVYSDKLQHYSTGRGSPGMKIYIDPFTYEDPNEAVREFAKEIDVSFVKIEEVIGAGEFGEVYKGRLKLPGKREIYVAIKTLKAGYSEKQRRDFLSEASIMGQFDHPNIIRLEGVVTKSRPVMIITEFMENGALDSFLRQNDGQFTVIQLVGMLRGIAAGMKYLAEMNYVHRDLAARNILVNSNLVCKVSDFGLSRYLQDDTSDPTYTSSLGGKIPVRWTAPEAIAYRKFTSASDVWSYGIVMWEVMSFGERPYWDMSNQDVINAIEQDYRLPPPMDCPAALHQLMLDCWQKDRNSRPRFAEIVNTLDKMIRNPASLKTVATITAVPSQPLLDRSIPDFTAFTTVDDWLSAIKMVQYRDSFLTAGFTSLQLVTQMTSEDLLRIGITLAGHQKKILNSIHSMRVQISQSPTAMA

Sample 1
Target: Eukaryotic initiation factor 4A-I (EIF4A1, Homo sapiens, UniProt P60842, residues 1-406, full length assumed)
UniProt P60842, sequence (whole entry, looked up): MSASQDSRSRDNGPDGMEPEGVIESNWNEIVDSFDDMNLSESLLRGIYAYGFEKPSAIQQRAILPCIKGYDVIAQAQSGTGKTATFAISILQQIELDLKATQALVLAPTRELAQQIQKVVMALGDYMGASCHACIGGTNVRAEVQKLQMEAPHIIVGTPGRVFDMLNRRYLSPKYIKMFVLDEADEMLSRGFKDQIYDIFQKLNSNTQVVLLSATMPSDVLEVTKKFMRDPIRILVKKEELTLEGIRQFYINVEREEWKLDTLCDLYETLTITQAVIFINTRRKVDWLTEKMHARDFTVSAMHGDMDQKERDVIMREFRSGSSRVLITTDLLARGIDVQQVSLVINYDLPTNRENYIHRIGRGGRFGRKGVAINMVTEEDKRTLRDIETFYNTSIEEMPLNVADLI
Technique: RNA Bind-n-Seq
Form: RNA
Matrix: in vitro
Concentration: 90 pmol
Notes: 4-mer, random 30-nt RNA, single round
With: 3 µM iPr-DMDA-PatA, 2 mM ADP, 2 mM phosphate
Relative to: input library
Reading: higher = stronger binding
Sequence	4-mer enrichment
GGAC	0.877 fold
UAGA	1.36 fold
UACC	1.08 fold
CGUG	0.743 fold
CUGC	0.764 fold
GGCA	0.747 fold
CUGA	1.07 fold
CAGA	1.17 fold

Sample 2
Target: Centromere-binding protein 1, full length, N-terminal tag (CBF1, Saccharomyces cerevisiae, UniProt P17106, residues 1-351)
UniProt P17106, sequence (whole entry, looked up): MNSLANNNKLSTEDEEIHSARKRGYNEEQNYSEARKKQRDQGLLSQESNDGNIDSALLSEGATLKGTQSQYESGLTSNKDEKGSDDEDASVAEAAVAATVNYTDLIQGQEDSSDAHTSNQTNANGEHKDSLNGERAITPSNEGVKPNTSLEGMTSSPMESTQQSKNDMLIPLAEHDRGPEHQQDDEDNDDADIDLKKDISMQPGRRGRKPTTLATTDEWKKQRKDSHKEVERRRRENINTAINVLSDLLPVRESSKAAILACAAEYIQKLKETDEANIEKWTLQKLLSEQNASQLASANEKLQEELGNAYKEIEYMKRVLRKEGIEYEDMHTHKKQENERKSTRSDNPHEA
Technique: protein-binding microarray
Form: double-stranded DNA, one strand shown
Matrix: in vitro
Concentration: 0.8 µM
Notes: whole 60-bp probe, no competitor
Reading: higher = stronger binding
All sequences stand within: … GTCTTGATTCGCTTGACGCTGCTG
Sequence	fluorescence intensity
GAAAGATAAACAATTCACATGAATGTCAAAATTTAG	544 a.u.
CTATTCTTGGTGGACCACGTGCCTTGCTTAAAGTTC	8710 a.u.
GAACAGTGTGGCGGTCACACTGGGCCCACTGGTTAG	524 a.u.
CTATAAAAAACAAAAAACACCACGTCCGGGTAATTC	533 a.u.
GAACGACATATCATCCACCAGATTATCACGCTATAG	597 a.u.
GAAGCGCAAGAAAGTGACGTGGCCAACTATCAGTAG	536 a.u.
CTAAAATATGCATATCATGTGGTTACATAAGAATTC	1580 a.u.
GAATTATACTACTATTTCATCAGATTTGTGCTTTAG	505 a.u.

Sample 3
Target: Sal-like protein 4, full length isoform B (SALL4, Homo sapiens, UniProt Q9UJQ4-2, residues 1-616)
Technique: universal PBM
Form: double-stranded DNA, one strand shown
Matrix: in vitro
Concentration: not given
Notes: 8-mer, flanks averaged, mean of replicates
Reading: higher = stronger binding
Sequence	E-score
AAACCTTA	0.191
CCGTAGTC	-0.178
CTGTTAAC	0.115
GCAGTTTA	0.0757
ACTGGCTC	-0.229
AGCGAGCC	-0.241
GGAATACC	-0.118
GGGAGAAC	-0.304

Mixed results
Compound	target	observed	action	concentration	relative to	measurement	value
CCCC(=O)Oc1ccc2[nH]c(C(=O)c3cc4ccccc4[nH]3)cc2c1	Ephrin type-B receptor 1 (EPHB1, Homo sapiens, UniProt P54762)	enzyme activity	inhibitor	0.5 µM	control	remaining activity	92.1%
